Assay results gathered from unrelated publications.
Organism: Staphylococcus aureus

CCCCCCCCCC[N+](C)(C)CCCCCCCCCCOc1cc(OCCCCCCCCCC[N+](C)(C)CCCCCCCCCC)cc(OCCCCCCCCCC[N+](C)(C)CCCCCCCCCC)c1.[Br-].[Br-].[Br-]  MIC (HA-MRSA ATCC 33591): 32 µM
C#CCOc1ccc(CN[C@@]2(C)C[C@H](O[C@H]3[C@H](Oc4c5cc6cc4Oc4ccc(cc4Cl)[C@@H](O)[C@@H](NC(=O)[C@@H](CC(C)C)NC)C(=O)N[C@@H](CC(N)=O)C(=O)N[C@H]6C(=O)N[C@H]4C(=O)N[C@H](C(=O)N[C@H](C(=O)N[C@@H](CCCNC(=N)N)C(N)=O)c6cc(O)cc(O)c6-c6cc4ccc6O)[C@H](O)c4ccc(c(Cl)c4)O5)O[C@H](CO)[C@@H](O)[C@@H]3O)O[C@@H](C)[C@H]2O)cc1OC  MIC (broth microdilution; MRSA USA300, cation-adjusted Mueller-Hinton broth; 20 to 24 h, 37 °C, 0.002% polysorbate 80): 0.5 µg/mL
COc1c(C)c(OC(=O)c2ccccc2)c(C)c(OC(=O)c2ccccc2)c1C(=O)/C=C/c1ccccc1  MIC (microbial growth, broth dilution; ATCC25923): 2500 µg/mL
CC[C@H]1OC(=O)[C@H](C)[C@@H](OC(=O)Cc2ccc(N)cc2)[C@H](C)[C@@H](O[C@@H]2O[C@H](C)C[C@H](N(C)C)[C@H]2O)[C@](C)(OC)C[C@@H](C)C(=O)[C@H](C)[C@@H](O)[C@]1(C)O  MIC (DSM 20231 MSSA): 4 µg/mL
CCCC/C=C/C(=O)N[C@@H](Cc1cc(F)cc(F)c1)C(=O)N[C@@H]1C(=O)N2CCC[C@H]2C(=O)N2CC[C@H](C)C[C@H]2C(=O)N[C@@H](C)C(=O)N2CCC[C@H]2C(=O)O[C@H]1C  MIC (microbial growth, broth dilution): 0.024 µg/mL
Oc1c(Br)cc(Br)c2nc3cc(Cc4ccccc4)ccc3nc12  MIC (129 MRSA clinical isolate): 0.39 µM
N=C(N)NCCC[C@@H]1NC(=O)[C@H](CCCNC(=N)N)NC(=O)[C@@H](CCCNC(=N)N)NC(=O)[C@H](C(c2ccccc2)c2ccccc2)NC(=O)[C@H](C(c2ccccc2)c2ccccc2)NC(=O)[C@H](C(c2ccccc2)c2ccccc2)NC(=O)[C@H](CCCNC(=N)N)NC1=O  MIC (ATCC 29213, MSSA): 4 µg/mL
CCCCCC[N+](C)(C)CCCCOc1cc(OCCCC[N+](C)(C)CCCCCC)cc(OCCCC[N+](C)(C)CCCCCC)c1.[Br-].[Br-].[Br-]  MIC (CA-MRSA USA300-0114): 63 µM
CC(C)C[C@@H]1NC(=O)[C@H](CCCN)NC(=O)[C@H](C(C)C)NC(=O)[C@@H]2CCCN2C(=O)[C@@H](Cc2ccccc2)NC(=O)[C@H](CC(C)C)NC(=O)[C@H](CCCN)NC(=O)[C@H](C(C)C)NC(=O)[C@@H]2CCCN2C(=O)[C@@H](Cc2ccccc2)NC1=O  MIC (NCTC 8325, Mueller Hinton broth; 21 h, 37 °C): 6.2 µg/mL
CCCCCCCCCCCCCCCCCCn1cc(CN(CCC(=O)NCCN(CCC(=O)NCCN(CCC(=O)NCCN(C)C)CCC(=O)NCCN(C)C)CCC(=O)NCCN(CCC(=O)NCCN(C)C)CCC(=O)NCCN(C)C)CCC(=O)NCCN(CCC(=O)NCCN(CCC(=O)NCCN(C)C)CCC(=O)NCCN(C)C)CCC(=O)NCCN(CCC(=O)NCCN(C)C)CCC(=O)NCCN(C)C)nn1  MIC (ATCC 43300 MRSA, LB broth; 18 h): > 96 µg/mL
CCCCCCn1cc[n+](CCCCCCCCOc2cc(OCCCCCCCC[n+]3ccn(CCCCCC)c3)cc(OCCCCCCCC[n+]3ccn(CCCCCC)c3)c2)c1.[Br-].[Br-].[Br-]  MIC (SH1000 MSSA): 1 µM
CCn1cc(/C=C/c2sc3ccccc3[n+]2CC)c2ccccc21  MIC (1466): 1 µg/mL
CCCCCCCCCCn1cc[n+](CCCCCCCCCCOc2cc(OCCCCCCCCCC[n+]3ccn(CCCCCCCCCC)c3)cc(OCCCCCCCCCC[n+]3ccn(CCCCCCCCCC)c3)c2)c1.[Br-].[Br-].[Br-]  MIC (SH1000 MSSA): 16 µM
CC[C@H]1OC(=O)[C@H](C)C(=O)[C@H](C)[C@@H](O[C@@H]2O[C@H](C)C[C@H](N(C)C)[C@H]2O)[C@](C)(OC)C[C@@H](C)C(=O)[C@H](C)[C@H]2N(CCCCn3cnc(-c4cccnc4)c3)C(=O)O[C@]12C  MIC (BAA-977): 4 µg/mL
CN[C@H](CC(C)C)C(=O)N[C@H]1C(=O)N[C@@H](CC(N)=O)C(=O)N[C@H]2C(=O)N[C@H]3C(=O)N[C@H](C(=O)N[C@H](C(=O)O)c4cc(O)cc(O)c4-c4cc3ccc4O)[C@H](O)c3ccc(c(Cl)c3)Oc3cc2cc(c3O[C@@H]2O[C@H](CO)[C@@H](O)[C@H](O)[C@H]2O[C@H]2C[C@](C)(NCc3ccc(OCc4cn(CCCCC(=O)N[C@H](C(=O)N[C@@H](CCN)C(=O)N[C@H]5CCNC(=O)[C@H]([C@@H](C)O)NC(=O)[C@H](CCN)NC(=O)[C@H](CCN)NC(=O)[C@H](CC(C)C)NC(=O)[C@@H](CC(C)C)NC(=O)[C@H](CCN)NC5=O)[C@@H](C)O)nn4)c(OC)c3)[C@H](O)[C@H](C)O2)Oc2ccc(cc2Cl)[C@H]1O  MIC (broth microdilution; MRSA USA300, cation-adjusted Mueller-Hinton broth; 20 to 24 h, 37 °C, 0.002% polysorbate 80): 0.25 µg/mL
CCC(CC)c1cc(CCN2CCCNCC2)nc(-c2cccnc2)n1  MIC (microbial growth, broth dilution; ATCC29213): > 16 µg/mL
CC[C@H]1OC(=O)[C@H](C)[C@@H](OC(=O)Cc2ccc(OC(F)(F)F)cc2)[C@H](C)[C@@H](O[C@@H]2O[C@H](C)C[C@H](N(C)C)[C@H]2O)[C@](C)(OC)C[C@@H](C)C(=O)[C@H](C)[C@@H](O)[C@]1(C)O  MIC (ATCC 43300 MRSA): > 64 µg/mL
COc1cc(C(=O)Nc2ccc(C(=O)O)cc2)ccc1NC(=O)c1ccc(NC(=O)[C@H](Cc2c[nH]nn2)NC(=O)c2ccc(NC(=O)/C(C)=C/c3ccc(O)cc3)cc2)cc1  MIC (broth microdilution; ciprofloxacin-sensitive): 32 µg/mL
CCCCCCCCCCCC[N+](C)(C)CCCCCCOc1cc(OCCCCCC[N+](C)(C)CCCCCCCCCCCC)cc(OCCCCCC[N+](C)(C)CCCCCCCCCCCC)c1.[Br-].[Br-].[Br-]  MIC (CA-MRSA USA300-0114): 4 µM
CC[C@H]1OC(=O)[C@H](C)[C@@H](OC(=O)Cc2cccc([N+](=O)[O-])c2)[C@H](C)[C@@H](O[C@@H]2O[C@H](C)C[C@H](N(C)C)[C@H]2O)[C@](C)(OC)C[C@@H](C)C(=O)[C@H](C)[C@@H](O)[C@]1(C)O  MIC (BAA-977): 0.5 µg/mL
CCOc1c(NC(=O)c2ccc(NC(=O)[C@H](Cc3c[nH]nn3)NC(=O)c3ccc(NC(=O)/C(C)=C/c4ccc(O)cc4)cc3)cc2)ccc(C(=O)Nc2ccc(C(=O)O)c(O)c2OC)c1O  MIC (broth microdilution; ciprofloxacin-resistant): 0.063 µg/mL
CCCCCCCC[C@@H]1NC(=O)[C@@H](CCCN)NC(=O)[C@@H](NC(=O)[C@@H](NC(=O)[C@@H](CCC(=O)O)NC(=O)[C@H](CC(C)C)NC(=O)[C@@H]2CSC([C@@H](N)[C@@H](C)CC)=N2)[C@@H](C)CC)CCCCNC(=O)[C@H](CC(N)=O)NC(=O)[C@@H](CC(=O)O)NC(=O)[C@H](Cc2c[nH]cn2)NC(=O)[C@@H](Cc2ccccc2)NC1=O  MIC (ATCC 29213; added: EDTA 0.3 mM): 16 µg/mL
CC[C@H]1OC(=O)[C@H](C)[C@@H](OC(=O)CC2CCCCC2)[C@H](C)[C@@H](O[C@@H]2O[C@H](C)C[C@H](N(C)C)[C@H]2O)[C@](C)(OC)C[C@@H](C)C(=O)[C@H](C)[C@@H](O)[C@]1(C)O  MIC (microbial growth; BAA976): 2 µg/mL
COc1c(NC(=O)c2ccc(NC(=O)[C@H](Cc3c[nH]nn3)NC(=O)c3ccc(NC(=O)/C(C)=C/c4ccc(O)cc4)cc3)cc2)ccc(C(=O)Nc2ccc(C(=O)O)c(O)c2)c1O  MIC (broth microdilution; ciprofloxacin-sensitive): 1 µg/mL
CNC(C)C1CCC(N)C(OC2C(N)CC(N)C(OC3OCC(C)(O)C(NC)C3O)C2O)O1 (stereo not drawn)  MIC (microbial growth, broth dilution; 29213): 3 µM
CC(=O)NC[C@H]1CN(c2ccc(N3CCN(C(=O)CN)CC3)c(F)c2)C(=O)O1  MIC (broth dilution; Newman): ~50 µM
CC[C@H]1OC(=O)[C@H](C)[C@@H](OC(=O)c2ccc([N+](=O)[O-])cc2)[C@H](C)[C@@H](O[C@@H]2O[C@H](C)C[C@H](N(C)C)[C@H]2O)[C@](C)(OC)C[C@@H](C)C(=O)[C@H](C)[C@@H](O)[C@]1(C)O  MIC (BAA-977): > 64 µg/mL
CCCCCCCC(=O)N[C@@H](CC(N)=O)C(=O)N[C@H]1CNC(=O)[C@H](c2ccc(O)c(Cl)c2)NC(=O)[C@@H](C)NC(=O)[C@H](CC(C)C)NC(=O)CNC(=O)[C@H](c2ccc(O)cc2)NC(=O)[C@@H]([C@H](C)O)NC(=O)[C@H](c2ccc(O)cc2)NC(=O)[C@@H](CCCN)NC(=O)[C@H](Cc2ccccc2)NC(=O)[C@H]([C@@H](C)O)NC(=O)[C@@H](c2ccc(O)cc2)NC(=O)[C@H](c2ccc(O)cc2)NC(=O)[C@@H]([C@H](C)O)NC(=O)[C@@H](CCCN)NC(=O)[C@@H](c2ccc(N)cc2)NC1=O  MIC (MSSA ATCC 29213): > 16 µM
CCCCCCCCCC(=O)Oc1c(C)c(OC)c2c(c1C)OC(=O)C(CCCCCCCC)C2(O)C=Cc1ccccc1 (stereo not drawn)  MIC (microbial growth, broth dilution; ATCC25923): 5000 µg/mL
CCCCCCn1cc[n+](CCCCCCCCCCOc2cc(OCCCCCCCCCC[n+]3ccn(CCCCCC)c3)cc(OCCCCCCCCCC[n+]3ccn(CCCCCC)c3)c2)c1.[Br-].[Br-].[Br-]  MIC (CA-MRSA USA300-0114): 2 µM
CC[C@H]1OC(=O)[C@H](C)[C@@H](OC(=O)Cc2ccc(Cl)cc2)[C@H](C)[C@@H](O[C@@H]2O[C@H](C)C[C@H](N(C)C)[C@H]2O)[C@](C)(OC)C[C@@H](C)C(=O)[C@H](C)[C@@H](O)[C@]1(C)O  MIC (DSM 20231 MSSA): 8 µg/mL
CCCCCCCCn1cc[n+](CCCCOc2cc(OCCCC[n+]3ccn(CCCCCCCC)c3)cc(OCCCC[n+]3ccn(CCCCCCCC)c3)c2)c1.[Br-].[Br-].[Br-]  MIC (HA-MRSA ATCC 33591): 1 µM
CC1C=CC=CC(C)C2C=CC3CC(C)(O)C(Cl)C(C)C3C2C(=O)C(Cl)(Cl)C(=O)C(C)C(=O)O1 (stereo not drawn)  MIC (MRSA clinical isolate; resistant OXA/SXT): 0.05 µg/mL

Repeated from above:
CCC(CC)c1cc(CCN2CCCNCC2)nc(-c2cccnc2)n1  MIC (microbial growth, broth dilution; ATCC29213): > 16 µg/mL
CCCCCCCCCC[N+](C)(C)CCCCCCCCCCOc1cc(OCCCCCCCCCC[N+](C)(C)CCCCCCCCCC)cc(OCCCCCCCCCC[N+](C)(C)CCCCCCCCCC)c1.[Br-].[Br-].[Br-]  MIC (HA-MRSA ATCC 33591): 32 µM
COc1c(NC(=O)c2ccc(NC(=O)[C@H](Cc3c[nH]nn3)NC(=O)c3ccc(NC(=O)/C(C)=C/c4ccc(O)cc4)cc3)cc2)ccc(C(=O)Nc2ccc(C(=O)O)c(O)c2)c1O  MIC (broth microdilution; ciprofloxacin-sensitive): 1 µg/mL
CC[C@H]1OC(=O)[C@H](C)[C@@H](OC(=O)Cc2ccc(N)cc2)[C@H](C)[C@@H](O[C@@H]2O[C@H](C)C[C@H](N(C)C)[C@H]2O)[C@](C)(OC)C[C@@H](C)C(=O)[C@H](C)[C@@H](O)[C@]1(C)O  MIC (DSM 20231 MSSA): 4 µg/mL
C#CCOc1ccc(CN[C@@]2(C)C[C@H](O[C@H]3[C@H](Oc4c5cc6cc4Oc4ccc(cc4Cl)[C@@H](O)[C@@H](NC(=O)[C@@H](CC(C)C)NC)C(=O)N[C@@H](CC(N)=O)C(=O)N[C@H]6C(=O)N[C@H]4C(=O)N[C@H](C(=O)N[C@H](C(=O)N[C@@H](CCCNC(=N)N)C(N)=O)c6cc(O)cc(O)c6-c6cc4ccc6O)[C@H](O)c4ccc(c(Cl)c4)O5)O[C@H](CO)[C@@H](O)[C@@H]3O)O[C@@H](C)[C@H]2O)cc1OC  MIC (broth microdilution; MRSA USA300, cation-adjusted Mueller-Hinton broth; 20 to 24 h, 37 °C, 0.002% polysorbate 80): 0.5 µg/mL
